Results from different studies.
Compare with care: the assays were run in different laboratories. ± marks the error that the study gave. In brackets after ≈: the same amount, converted by molar mass.
Cell line: Vero

Compound	read-out	method	tested at	time	endpoint	result
NCc1ccc(NC(=O)c2cc(-c3ccccc3)n(-c3ccccc3)n2)cc1	cell growth or viability		12.5 µM		viability	> 95%
Cc1[nH]c(=S)[nH]c(=O)c1/N=N/c1nnc(S)s1	cell growth or viability	MTT		72 h	CC50	≥ 10 µg/mL
NC(=O)c1cccc(NC(=O)c2cc(-c3ccc(Br)cc3)n(-c3ccccc3)n2)c1	cell growth or viability		12.5 µM		viability	87%
CC1(F)CN(C(=O)Cn2c(=O)c(C(=O)NCc3ccc(Cl)cc3)cc3nc(N4CCN(CCN)C4=O)cnc32)C1	cell growth or viability	CCK-8		5 days	CC50	> 40 µM
O=C(Oc1cc(OC(=O)c2cc(O)c(O)c(O)c2)c2ccccc2c1)c1cc(O)c(O)c(O)c1	cell growth or viability	MTT		48 h	CC50	88.9 µM
Cc1[nH]c(=S)[nH]c(=O)c1/N=N/c1nnc(S)[nH]1	cell growth or viability	MTT		72 h	CC50	≥ 10 µg/mL
Oc1cccc2c1[nH]c1c(C3=CC4(O)CCC=CCCCCN5CCC3C3(CC6C=CCCCCN6C43)C5)nccc12 (single isomer, unassigned; (+))	cytotoxicity				IC50	0.775 ± 0.175 µg/mL (≈ 1.37 µM)
Cc1ccccc1-n1nc(C(=O)Nc2cccc(C(N)=O)c2)cc1-c1cccnc1	cell growth or viability		12.5 µM		viability	> 95%
CN(C)c1ncnc2c1ncn2[C@@H]1O[C@H](CCl)[C@@H](NC(=O)[C@H](CSC23CC4CC(CC(C4)C2)C3)NC(=O)OC(C)(C)C)[C@H]1O	cell growth or viability	MTT			CC50	27.1 µM
